Published values from different studies.
Protocols differ between the studies behind these lines. Numbers after ± are the reported error.
Fibroin-modulator-binding protein-1: Fibroin-modulator-binding protein-1 99-193 (Bombyx mori, UniProt Q5FBS0)
Chain of UniProt Q4VGL6 (whole entry, looked up): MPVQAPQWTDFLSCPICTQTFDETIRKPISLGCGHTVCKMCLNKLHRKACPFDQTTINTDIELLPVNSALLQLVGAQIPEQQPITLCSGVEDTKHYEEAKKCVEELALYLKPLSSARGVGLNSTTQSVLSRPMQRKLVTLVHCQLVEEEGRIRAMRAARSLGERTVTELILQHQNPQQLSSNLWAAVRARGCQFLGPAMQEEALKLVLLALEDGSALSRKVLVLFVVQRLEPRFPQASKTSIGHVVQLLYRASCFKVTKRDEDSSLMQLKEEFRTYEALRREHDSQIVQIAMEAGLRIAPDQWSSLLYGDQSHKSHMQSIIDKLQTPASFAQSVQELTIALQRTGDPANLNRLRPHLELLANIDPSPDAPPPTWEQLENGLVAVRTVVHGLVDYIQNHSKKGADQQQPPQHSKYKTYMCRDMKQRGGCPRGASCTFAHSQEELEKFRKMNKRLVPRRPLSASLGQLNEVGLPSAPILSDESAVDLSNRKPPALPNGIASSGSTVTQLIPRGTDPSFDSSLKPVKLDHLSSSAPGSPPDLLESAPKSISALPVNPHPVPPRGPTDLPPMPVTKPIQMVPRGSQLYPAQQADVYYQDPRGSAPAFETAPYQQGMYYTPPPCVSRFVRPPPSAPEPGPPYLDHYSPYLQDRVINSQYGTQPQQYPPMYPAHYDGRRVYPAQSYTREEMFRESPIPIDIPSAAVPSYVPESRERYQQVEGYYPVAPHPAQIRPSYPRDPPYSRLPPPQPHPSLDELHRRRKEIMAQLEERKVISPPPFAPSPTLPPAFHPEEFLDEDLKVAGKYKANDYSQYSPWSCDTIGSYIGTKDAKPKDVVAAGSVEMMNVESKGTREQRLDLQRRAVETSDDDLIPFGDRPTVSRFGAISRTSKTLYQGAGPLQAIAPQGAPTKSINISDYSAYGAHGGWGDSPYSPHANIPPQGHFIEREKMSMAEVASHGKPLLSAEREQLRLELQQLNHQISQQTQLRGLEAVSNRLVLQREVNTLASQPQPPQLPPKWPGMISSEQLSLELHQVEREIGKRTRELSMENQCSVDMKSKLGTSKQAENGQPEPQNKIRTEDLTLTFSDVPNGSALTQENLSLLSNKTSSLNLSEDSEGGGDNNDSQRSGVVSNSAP
Chain of UniProt P25454 (whole entry, looked up): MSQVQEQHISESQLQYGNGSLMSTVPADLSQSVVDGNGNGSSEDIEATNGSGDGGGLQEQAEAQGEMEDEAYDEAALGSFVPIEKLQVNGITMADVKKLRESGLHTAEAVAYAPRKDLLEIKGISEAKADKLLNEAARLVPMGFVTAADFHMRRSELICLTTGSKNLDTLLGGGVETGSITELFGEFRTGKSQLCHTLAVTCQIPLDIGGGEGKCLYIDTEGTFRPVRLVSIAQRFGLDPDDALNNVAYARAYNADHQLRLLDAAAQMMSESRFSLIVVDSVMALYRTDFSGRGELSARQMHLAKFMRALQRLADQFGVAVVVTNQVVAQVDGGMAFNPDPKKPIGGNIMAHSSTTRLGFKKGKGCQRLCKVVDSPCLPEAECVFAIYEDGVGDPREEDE
Chain of UniProt P02788 (whole entry, looked up): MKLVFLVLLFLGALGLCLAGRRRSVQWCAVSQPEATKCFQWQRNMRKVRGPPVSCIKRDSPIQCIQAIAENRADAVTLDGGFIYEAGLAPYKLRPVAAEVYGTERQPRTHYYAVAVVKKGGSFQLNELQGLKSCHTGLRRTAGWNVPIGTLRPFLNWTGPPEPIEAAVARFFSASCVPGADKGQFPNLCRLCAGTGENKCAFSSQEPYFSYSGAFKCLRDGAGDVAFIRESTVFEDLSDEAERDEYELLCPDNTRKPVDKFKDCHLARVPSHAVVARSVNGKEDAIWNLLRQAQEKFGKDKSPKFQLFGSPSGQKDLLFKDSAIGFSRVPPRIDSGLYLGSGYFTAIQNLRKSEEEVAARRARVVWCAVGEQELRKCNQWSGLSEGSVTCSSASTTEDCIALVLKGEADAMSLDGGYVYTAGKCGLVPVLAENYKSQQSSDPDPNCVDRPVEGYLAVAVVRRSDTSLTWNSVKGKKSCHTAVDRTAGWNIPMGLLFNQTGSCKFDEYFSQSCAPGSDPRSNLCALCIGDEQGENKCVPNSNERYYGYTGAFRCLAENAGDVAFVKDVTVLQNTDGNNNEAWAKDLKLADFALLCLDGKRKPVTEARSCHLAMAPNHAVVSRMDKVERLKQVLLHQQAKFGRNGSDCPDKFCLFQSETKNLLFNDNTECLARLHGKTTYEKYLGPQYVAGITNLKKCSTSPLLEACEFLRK
Chain of UniProt P13991 (whole entry, looked up): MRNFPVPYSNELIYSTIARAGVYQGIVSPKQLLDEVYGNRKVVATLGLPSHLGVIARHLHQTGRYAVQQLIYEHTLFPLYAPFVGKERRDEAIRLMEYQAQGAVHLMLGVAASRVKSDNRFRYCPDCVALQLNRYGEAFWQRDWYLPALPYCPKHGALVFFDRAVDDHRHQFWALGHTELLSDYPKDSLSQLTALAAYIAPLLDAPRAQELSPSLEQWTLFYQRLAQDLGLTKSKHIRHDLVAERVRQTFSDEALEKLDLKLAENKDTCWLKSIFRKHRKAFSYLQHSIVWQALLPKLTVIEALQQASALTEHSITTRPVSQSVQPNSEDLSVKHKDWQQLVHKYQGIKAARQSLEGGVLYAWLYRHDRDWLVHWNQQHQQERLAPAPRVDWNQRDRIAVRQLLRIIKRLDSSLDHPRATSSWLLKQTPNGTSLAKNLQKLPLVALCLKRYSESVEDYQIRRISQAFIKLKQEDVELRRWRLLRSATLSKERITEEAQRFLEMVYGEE
Chain of UniProt Q15109 (whole entry, looked up): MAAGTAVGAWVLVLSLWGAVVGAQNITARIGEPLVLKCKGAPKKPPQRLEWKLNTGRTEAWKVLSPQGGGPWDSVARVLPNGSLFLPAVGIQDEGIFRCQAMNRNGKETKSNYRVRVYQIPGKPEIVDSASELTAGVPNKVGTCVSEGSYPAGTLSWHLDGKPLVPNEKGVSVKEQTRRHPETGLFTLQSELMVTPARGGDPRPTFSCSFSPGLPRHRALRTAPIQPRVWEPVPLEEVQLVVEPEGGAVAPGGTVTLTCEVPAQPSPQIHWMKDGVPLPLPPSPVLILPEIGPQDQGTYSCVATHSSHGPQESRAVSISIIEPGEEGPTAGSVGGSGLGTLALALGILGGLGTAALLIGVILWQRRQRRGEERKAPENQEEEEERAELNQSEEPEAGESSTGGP
Chain of UniProt P33240 (whole entry, looked up): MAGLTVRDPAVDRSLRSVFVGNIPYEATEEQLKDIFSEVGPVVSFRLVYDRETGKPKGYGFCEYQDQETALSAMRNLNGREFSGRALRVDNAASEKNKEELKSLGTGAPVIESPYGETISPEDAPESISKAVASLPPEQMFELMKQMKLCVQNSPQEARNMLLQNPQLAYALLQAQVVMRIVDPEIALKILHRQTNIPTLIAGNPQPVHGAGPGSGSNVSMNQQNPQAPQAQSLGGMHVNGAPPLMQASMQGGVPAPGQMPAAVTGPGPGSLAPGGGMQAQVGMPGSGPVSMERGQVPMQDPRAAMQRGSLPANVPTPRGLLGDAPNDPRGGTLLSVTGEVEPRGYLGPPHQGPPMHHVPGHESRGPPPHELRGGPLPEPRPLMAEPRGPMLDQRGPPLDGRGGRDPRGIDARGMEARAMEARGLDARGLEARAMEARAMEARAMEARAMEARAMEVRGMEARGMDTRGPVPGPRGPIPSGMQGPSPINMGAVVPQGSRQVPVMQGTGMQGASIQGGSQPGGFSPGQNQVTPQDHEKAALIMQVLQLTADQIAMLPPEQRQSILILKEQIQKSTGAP

| Strand | target | test | system | conditions | scale | measurement | value |
| --- | --- | --- | --- | --- | --- | --- | --- |
| TGCTGCTTTTGTGCTTTTGTGCTT (ssDNA) | AGER 23-342 (Homo sapiens, UniProt Q15109) | competition EMSA | single-stranded DNA | – | – | binding | binds |
| GCGAGCGAGCGA (dsDNA) | Fibroin-modulator-binding protein-1 | ITC | double-stranded DNA, one strand shown | – | – | Kd | 7.95 µM |
| TTTTTTTTTTCGTATGGCACGGGGTTGGTGTTGGGTTGG (ssDNA; 5'-phosphate; G-quadruplex) | LTF 20-710 (Homo sapiens, UniProt P02788) | electrolyte-gated transistor sensor | single-stranded DNA | – | – | binding | no binding |
| CGGACGGACGGA (dsDNA) | Fibroin-modulator-binding protein-1 | ITC | double-stranded DNA, one strand shown | – | – | Kd | 5.95 ± 0.899 µM |
| ATACTAACAATCAGAACCCGGATTAATCGAAAGCTT (dsDNA) | tnsD 1-318 (Escherichia coli, UniProt P13991) | EMSA | double-stranded DNA, one strand shown | – | – | binding | binds |
| CAAAATACAAAGGAGGGCTAGGAATAAAG (dsDNA) | Ethylene-responsive transcription factor 13 (Nicotiana attenuata, UniProt A0A1J6JM52) | EMSA | double-stranded DNA, one strand shown | – | – | binding | binds |
| GUGUGU (ssRNA) | CSTF2 1-107 (Homo sapiens, UniProt P33240) | NMR titration | RNA | 27 °C | – | binding | binds |
| AACGACGTTTGGTCAGTTCCATCAACATCATAGCCAGATGCCCAGAGATTAGAGCGCATGACAAGTAAAGGACGGTTGTCAGCGTCATAAGAGGTTTTAC (ssDNA) | RAD51 1-400 (Saccharomyces cerevisiae, UniProt P25454) | cryo-EM | single-stranded DNA | with: ADP-AlF3, Mg2+ | – | binding | binds |
| UAUUU (ssRNA) | Rc3h1 411-454 (Mus musculus, UniProt Q4VGL6) | NMR | RNA | – | – | binding | binds |
| GGGAGAACUUCGACCAGAAGUCCACUCUCGCGCACAUAUACGCAAAACCCUACCUGCCUUAUGUGCGCAUACAUGGAUCCUC (ssRNA; 2'-fluoro pyrimidines) | integrin alphaV/beta3 31-992/27-718 (Homo sapiens) | SPR | RNA | with: MnCl2 1 mM | higher = more binding | relative binding | 15.4 RU |
| ACCAAGCGGGTTGCGGAGCCGCCGCCGCCGCCG (dsDNA; blunt) | WT1 zinc finger domain 323-435 (Homo sapiens) | EMSA | double-stranded DNA, one strand shown | – | – | binding | no binding |
| GGCCUUGCACAGUAGUCCAGCGGUAAGGGUGUAGAUCAGGCCCGUCUGUUUCUCCCCCGGAGCUCGCUCCCUUGGCUUCCCUUAUAUAUUUUAACAUCAGAAACAGACAUUAAACAUCUACUGAUCCAAUUUCGCCGGCGUACGGCAUGAUGAUCCGGCGAUGAAAAA (structured RNA) | Reverse transcriptase-like protein 275-1114 D996A (Bombyx mori, UniProt V9H052) | competition | folded RNA | – | – | binding | binds |
